# Measurements pooled from the literature.
# Each line is one published result; not all experiments were run side by side. ± marks the error that the study gave.
# Chain of UniProt P05181 (whole entry, looked up): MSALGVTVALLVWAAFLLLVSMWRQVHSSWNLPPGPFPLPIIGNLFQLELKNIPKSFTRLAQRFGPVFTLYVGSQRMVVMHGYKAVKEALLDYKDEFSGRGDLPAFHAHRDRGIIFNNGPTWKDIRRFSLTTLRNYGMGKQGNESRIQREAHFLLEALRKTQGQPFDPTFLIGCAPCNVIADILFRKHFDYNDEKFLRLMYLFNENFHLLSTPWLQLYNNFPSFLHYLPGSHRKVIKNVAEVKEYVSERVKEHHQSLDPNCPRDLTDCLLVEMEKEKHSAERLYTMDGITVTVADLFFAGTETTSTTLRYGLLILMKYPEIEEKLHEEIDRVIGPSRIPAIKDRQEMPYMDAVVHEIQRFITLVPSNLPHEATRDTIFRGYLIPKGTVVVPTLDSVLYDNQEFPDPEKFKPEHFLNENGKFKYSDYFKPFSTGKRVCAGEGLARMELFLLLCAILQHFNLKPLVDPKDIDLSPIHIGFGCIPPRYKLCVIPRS
# Chain of UniProt P05177 (whole entry, looked up): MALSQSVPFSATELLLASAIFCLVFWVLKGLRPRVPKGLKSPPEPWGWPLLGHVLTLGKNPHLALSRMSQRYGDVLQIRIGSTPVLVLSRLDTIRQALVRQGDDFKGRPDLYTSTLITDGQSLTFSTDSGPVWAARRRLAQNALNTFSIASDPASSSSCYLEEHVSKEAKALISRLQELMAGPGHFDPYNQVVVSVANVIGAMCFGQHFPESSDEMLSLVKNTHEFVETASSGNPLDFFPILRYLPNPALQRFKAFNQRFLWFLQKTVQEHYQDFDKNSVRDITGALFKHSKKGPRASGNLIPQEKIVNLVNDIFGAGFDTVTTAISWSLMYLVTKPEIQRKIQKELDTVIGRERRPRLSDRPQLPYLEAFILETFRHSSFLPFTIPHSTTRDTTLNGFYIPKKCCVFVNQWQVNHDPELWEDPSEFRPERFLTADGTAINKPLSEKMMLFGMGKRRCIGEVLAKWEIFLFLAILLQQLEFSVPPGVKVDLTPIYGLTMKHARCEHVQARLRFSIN
Structure (SMILES),target or system,test,system,setting,how to read,quantity,value
[64Cu+2].c1cnc(CNCc2ccc(CN3CCCN4CCNCCCN(CC4)CC3)cc2)nc1,CXCR4,,"NOD/SCID mouse, U87 and U87-stb-CXCR4 xenografts, lungs","iv, 90 min, no blocking dose, ex vivo",,tissue uptake,3.15 ± 0.15 %ID/g
CC(=O)OC(CF)Cn1cnc([N+](=O)[O-])c1 (stereo not shown),Salmonella enterica serovar Typhimurium,"Ames test, Bernstein slope",TA102,,,mutagenic potency,2.51 ± 0.44 revertants/µg
CC(=O)N[C@H](C(=O)N[C@H](C(=O)N[C@@H](CCCNC(=N)N)C(=O)N1Cc2ccccc2C[C@H]1C(=O)N[C@@H](Cc1ccccc1)C(N)=O)C1CCCCC1)C(C)C,human PBMC,"Bio-Plex multiplex, refers to: PDGF-bb",,"250 µg/mL, 24 h",,cytokine level,250 ± 255 pg/mL
O=C(O)c1cc(Br)c(O)c(Br)c1,"Cytochrome P450 2E1 (CYP2E1, Homo sapiens, UniProt P05181)","p-nitrophenol hydroxylation, inhibitor",,"10 min, together with: p-nitrophenol 100 µM",,IC50,1000 nM
CCCCCc1ccc2c(c1O)C(c1ccc(OC)c(OC)c1)OC2=O (stereo not shown),Naegleria fowleri trophozoites,AlamarBlue,ATCC 30215,"48 h, 37 °C",baseline: J774A.1 CC50 over IC50 ATCC 30215,selectivity index,≥ 43.2
Cn1c(=O)oc2ccc(-c3ccc(CC(C#N)NC(=O)C4CNCCCO4)c(F)c3)cc21 (stereo not shown),,,human,"oral, 20 mg once daily, treatment-related AE, multiple ascending dose",,lymphadenopathy incidence,11.1%
CC(=O)OC(CCl)Cn1cncc1[N+](=O)[O-] (stereo not shown),Salmonella enterica serovar Typhimurium,"Ames test, Bernstein slope",TA98,,,mutagenic potency,0.69 ± 0.05 revertants/µg
N=C(N)NCCC[C@@H]1NC(=O)[C@H](Cc2c[nH]c3ccccc23)NC(=O)[C@@H](CC2CCCCC2)NC(=O)[C@@H]2CCCN2C(=O)[C@@H](NC(=O)CCc2ccccc2)CCCNC1=O,,,"C57BL/6J mouse, plasma spinal cord","intravenous, 1 mg/kg single dose",,MRT(0-inf),2.45 h
COc1ccc(C2OC(=O)c3ccc(-c4ccccc4)c(O)c32)c(OC)c1OC (stereo not shown),Naegleria fowleri trophozoites,AlamarBlue,ATCC 30215,"48 h, 37 °C",baseline: J774A.1 CC50 over IC50 ATCC 30215,selectivity index,≥ 39.5
CC(=O)OC(CF)Cn1c([N+](=O)[O-])cnc1C (stereo not shown),Salmonella enterica serovar Typhimurium,Ames test,TA100,72 h,,mutagenic potency,8.98 ± 0.71 revertants/µg
N#C[C@@H]1CCCN1C(=O)CNC(=O)c1ccnc2ccc(OCCCN3CCN(C(=O)CCc4ccc5c(c4)CN4CCN6CC(=O)[O][68Ga-]([O]C(=O)C4)([O]5)[O]c4ccc(CCC(=O)N5CCN(CCCOc7ccc8nccc(C(=O)NCC(=O)N9CCC[C@H]9C#N)c8c7)CC5)cc4C6)CC3)cc12,U-87 MG tumour model,,"host not given, tumour","2 h, tumour-bearing",,tracer uptake,33.1 %ID/g
C=CC(=O)Nc1cc(Nc2nccc(-c3cn(C)c4ccccc34)n2)c(OCC(F)(F)F)nc1N(C)CCN(C)C,"Cytochrome P450 1A2 (CYP1A2, Homo sapiens, UniProt P05177)","enzyme activity, inhibitor","human, liver microsomes",10 µM,,activity vs control,73.3%
COc1ccc(C2OC(=O)c3ccc(C(C)C)c(O)c32)cc1OC (stereo not shown),Naegleria fowleri trophozoites,AlamarBlue,ATCC 30808,"48 h, 37 °C",baseline: J774A.1 CC50 over IC50 ATCC 30808,selectivity index,≥ 3.42
CCC(=O)N(C)c1ccc(Cl)c(Cl)c1,CHO-WBL,,,"0.063 mg/mL, 3 h, without S9 activation",,cells with one aberration,0%
CC1(C)CCC23COC4(C=CC5C6(C)CCC(O)C(C)(CO)C6CCC5(C)C4(C)CC2O)C3C1 (stereo not shown),Caco-2 monolayer,,,"10 µM, 3 h, 37 °C, apical to basolateral",,recovery,85.4%
O=C(CCC(=O)OCCNC(=O)[C@@H](Cc1ccccc1)NC(=O)[C@@H](Cc1ccccc1)NC(=O)CCNc1ccc([N+](=O)[O-])c2nonc12)NCCS(=O)(=O)O,HeLa,,,"200 µM, 24 h, after one PBS wash",,intracellular concentration,1.4 mM
[64Cu+2].c1ccc(CNCc2ccc(CN3CCCN4CCNCCCN(CC4)CC3)cc2)nc1,CXCR4,,"NOD/SCID mouse, U87 and U87-stb-CXCR4 xenografts, muscle","iv, 240 min, ex vivo",,tissue uptake,0.34 ± 0.02 %ID/g
COc1ccc(C2OC(=O)c3cc4c(c(O)c32)CCCC4)c(OC)c1OC (stereo not shown),Naegleria fowleri trophozoites,AlamarBlue,ATCC 30808,"48 h, 37 °C",baseline: J774A.1 CC50 over IC50 ATCC 30808,selectivity index,≥ 1.49
C[C@]12CC[C@@H]3c4ccc(OCC(=O)N[C@@H](CCCCNC(=O)CN5CCN(CC(=O)[O-])CCN(CC(=O)[O-])CCN(CC(=O)[O-])CC5)C(=O)O)cc4CC[C@H]3[C@@H]1CCC2=O.[68Ga+3],estrogen receptor,,"nude mice, MCF7 xenograft, tumour","dose not given, 2.5 h post-injection, no blocking dose",,radioactivity uptake,2.69 ± 0.62 %ID/g

# Excerpt of the above:
Structure (SMILES),target or system,test,system,setting,how to read,quantity,value
N=C(N)NCCC[C@@H]1NC(=O)[C@H](Cc2c[nH]c3ccccc23)NC(=O)[C@@H](CC2CCCCC2)NC(=O)[C@@H]2CCCN2C(=O)[C@@H](NC(=O)CCc2ccccc2)CCCNC1=O,,,"C57BL/6J mouse, plasma spinal cord","intravenous, 1 mg/kg single dose",,MRT(0-inf),2.45 h
CC(=O)OC(CF)Cn1c([N+](=O)[O-])cnc1C (stereo not shown),Salmonella enterica serovar Typhimurium,Ames test,TA100,72 h,,mutagenic potency,8.98 ± 0.71 revertants/µg
